Literature values that unrelated publications cite.
Protocols differ between the studies behind these lines. ± gives the spread as reported.
Slc6a4: Sodium-dependent serotonin transporter (Slc6a4, Rattus norvegicus, UniProt P31652)
Sequence of UniProt P31652 (whole entry, looked up): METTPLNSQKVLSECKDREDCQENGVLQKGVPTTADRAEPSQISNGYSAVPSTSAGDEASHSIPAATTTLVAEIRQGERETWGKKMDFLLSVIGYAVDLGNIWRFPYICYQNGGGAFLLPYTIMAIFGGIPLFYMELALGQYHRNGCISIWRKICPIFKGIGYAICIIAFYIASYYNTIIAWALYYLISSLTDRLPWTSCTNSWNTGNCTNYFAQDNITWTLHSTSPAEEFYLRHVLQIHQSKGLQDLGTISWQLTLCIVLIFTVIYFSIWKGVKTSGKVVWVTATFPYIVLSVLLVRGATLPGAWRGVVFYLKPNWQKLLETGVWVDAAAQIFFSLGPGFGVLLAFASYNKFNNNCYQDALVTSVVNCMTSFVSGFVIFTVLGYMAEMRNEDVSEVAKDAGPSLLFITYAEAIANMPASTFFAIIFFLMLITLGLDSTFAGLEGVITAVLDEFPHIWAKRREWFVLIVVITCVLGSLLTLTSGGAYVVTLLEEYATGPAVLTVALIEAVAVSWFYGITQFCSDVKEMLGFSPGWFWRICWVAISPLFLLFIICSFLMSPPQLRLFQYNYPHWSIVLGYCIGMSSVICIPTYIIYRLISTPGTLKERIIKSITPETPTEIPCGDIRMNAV
GABRA1/GABRB3 L291T with gamma-2 subunit: GABA-A receptor alpha-1/beta-3, with gamma-2 subunit (GABRA1/GABRB3, Homo sapiens, UniProt P14867+P28472, L291T)
Sequence of UniProt P28472 (whole entry, unmodified, looked up): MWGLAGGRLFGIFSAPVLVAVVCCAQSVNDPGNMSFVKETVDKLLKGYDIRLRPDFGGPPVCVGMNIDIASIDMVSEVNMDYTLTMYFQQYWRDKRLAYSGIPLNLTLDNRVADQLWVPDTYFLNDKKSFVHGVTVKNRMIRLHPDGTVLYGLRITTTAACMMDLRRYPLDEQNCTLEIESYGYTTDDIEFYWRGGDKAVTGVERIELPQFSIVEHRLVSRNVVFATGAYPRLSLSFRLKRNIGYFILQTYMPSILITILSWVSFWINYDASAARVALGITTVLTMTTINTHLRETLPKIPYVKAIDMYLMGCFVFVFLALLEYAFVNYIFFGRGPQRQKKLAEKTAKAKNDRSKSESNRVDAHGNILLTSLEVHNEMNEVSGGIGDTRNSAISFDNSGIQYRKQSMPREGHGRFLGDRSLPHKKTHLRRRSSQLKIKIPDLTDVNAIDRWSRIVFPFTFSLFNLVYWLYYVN
Sequence of UniProt P14867 (whole entry, unmodified, looked up): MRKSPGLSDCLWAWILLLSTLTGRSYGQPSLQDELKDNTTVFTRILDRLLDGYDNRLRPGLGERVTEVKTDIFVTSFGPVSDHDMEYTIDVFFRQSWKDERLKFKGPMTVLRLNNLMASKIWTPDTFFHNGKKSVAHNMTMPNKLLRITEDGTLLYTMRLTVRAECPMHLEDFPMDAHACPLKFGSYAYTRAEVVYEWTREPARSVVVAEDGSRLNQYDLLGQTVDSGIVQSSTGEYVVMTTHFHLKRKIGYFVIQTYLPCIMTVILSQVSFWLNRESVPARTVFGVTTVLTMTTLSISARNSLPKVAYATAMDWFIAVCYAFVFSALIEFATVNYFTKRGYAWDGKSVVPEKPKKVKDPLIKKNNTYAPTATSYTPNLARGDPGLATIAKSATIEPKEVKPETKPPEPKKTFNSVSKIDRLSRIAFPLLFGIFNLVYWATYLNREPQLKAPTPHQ
HTR2A: 5-hydroxytryptamine receptor 2A (HTR2A, Homo sapiens, UniProt P28223)
Sequence of UniProt P28223 (whole entry, looked up): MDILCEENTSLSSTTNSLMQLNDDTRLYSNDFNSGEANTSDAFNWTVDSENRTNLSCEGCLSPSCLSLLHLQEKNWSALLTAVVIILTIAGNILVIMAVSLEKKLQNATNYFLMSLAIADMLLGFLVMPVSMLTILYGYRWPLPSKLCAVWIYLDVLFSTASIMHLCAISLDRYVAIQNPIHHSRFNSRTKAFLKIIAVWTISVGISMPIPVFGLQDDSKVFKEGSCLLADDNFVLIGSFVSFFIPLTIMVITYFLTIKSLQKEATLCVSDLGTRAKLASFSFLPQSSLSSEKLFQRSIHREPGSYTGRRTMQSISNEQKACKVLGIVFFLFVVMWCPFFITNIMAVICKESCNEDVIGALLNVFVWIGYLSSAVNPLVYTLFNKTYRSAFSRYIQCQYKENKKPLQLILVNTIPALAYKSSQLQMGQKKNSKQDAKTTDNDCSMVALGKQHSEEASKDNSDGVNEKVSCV
Slc6a3: Sodium-dependent dopamine transporter (Slc6a3, Rattus norvegicus, UniProt P23977)
Sequence of UniProt P23977 (whole entry, looked up): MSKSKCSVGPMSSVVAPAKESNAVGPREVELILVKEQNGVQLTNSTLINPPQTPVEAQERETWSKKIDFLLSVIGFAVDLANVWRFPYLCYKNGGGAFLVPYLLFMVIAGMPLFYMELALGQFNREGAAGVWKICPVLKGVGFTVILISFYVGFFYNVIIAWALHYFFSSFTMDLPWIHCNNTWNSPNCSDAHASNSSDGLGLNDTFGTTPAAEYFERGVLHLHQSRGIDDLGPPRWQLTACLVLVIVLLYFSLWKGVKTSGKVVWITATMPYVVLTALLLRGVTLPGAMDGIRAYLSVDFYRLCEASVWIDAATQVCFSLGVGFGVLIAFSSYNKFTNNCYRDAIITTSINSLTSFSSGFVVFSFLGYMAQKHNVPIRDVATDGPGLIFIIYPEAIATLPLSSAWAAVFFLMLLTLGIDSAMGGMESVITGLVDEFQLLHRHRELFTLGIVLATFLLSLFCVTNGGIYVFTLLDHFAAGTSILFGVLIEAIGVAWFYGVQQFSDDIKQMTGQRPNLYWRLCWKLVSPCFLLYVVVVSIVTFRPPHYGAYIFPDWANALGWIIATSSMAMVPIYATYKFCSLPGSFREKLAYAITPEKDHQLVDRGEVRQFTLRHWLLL
Sequence of UniProt P35368 (whole entry, looked up): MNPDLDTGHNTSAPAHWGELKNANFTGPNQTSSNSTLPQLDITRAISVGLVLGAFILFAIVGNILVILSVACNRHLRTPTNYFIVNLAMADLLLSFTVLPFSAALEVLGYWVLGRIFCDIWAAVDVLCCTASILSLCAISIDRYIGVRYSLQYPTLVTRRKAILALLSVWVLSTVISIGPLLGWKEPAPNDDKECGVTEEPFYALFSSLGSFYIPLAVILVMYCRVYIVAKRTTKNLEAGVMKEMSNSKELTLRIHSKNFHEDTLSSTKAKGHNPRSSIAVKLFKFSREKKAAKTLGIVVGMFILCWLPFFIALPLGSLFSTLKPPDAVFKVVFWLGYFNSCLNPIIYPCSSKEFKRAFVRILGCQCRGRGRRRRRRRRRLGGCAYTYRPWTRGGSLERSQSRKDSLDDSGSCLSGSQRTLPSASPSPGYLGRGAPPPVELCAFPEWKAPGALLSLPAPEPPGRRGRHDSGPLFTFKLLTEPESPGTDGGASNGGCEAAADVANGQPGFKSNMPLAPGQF
Sequence of UniProt Q9Y2T6 (whole entry, looked up): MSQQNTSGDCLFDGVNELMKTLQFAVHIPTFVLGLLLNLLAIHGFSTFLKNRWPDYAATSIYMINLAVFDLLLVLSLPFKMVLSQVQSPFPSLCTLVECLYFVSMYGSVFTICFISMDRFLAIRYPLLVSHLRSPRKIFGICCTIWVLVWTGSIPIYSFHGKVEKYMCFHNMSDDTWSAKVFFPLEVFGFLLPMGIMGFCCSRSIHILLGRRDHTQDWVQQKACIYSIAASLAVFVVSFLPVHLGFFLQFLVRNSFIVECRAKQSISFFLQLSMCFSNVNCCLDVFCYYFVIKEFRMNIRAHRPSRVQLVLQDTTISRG
Sequence of UniProt Q01959 (whole entry, looked up): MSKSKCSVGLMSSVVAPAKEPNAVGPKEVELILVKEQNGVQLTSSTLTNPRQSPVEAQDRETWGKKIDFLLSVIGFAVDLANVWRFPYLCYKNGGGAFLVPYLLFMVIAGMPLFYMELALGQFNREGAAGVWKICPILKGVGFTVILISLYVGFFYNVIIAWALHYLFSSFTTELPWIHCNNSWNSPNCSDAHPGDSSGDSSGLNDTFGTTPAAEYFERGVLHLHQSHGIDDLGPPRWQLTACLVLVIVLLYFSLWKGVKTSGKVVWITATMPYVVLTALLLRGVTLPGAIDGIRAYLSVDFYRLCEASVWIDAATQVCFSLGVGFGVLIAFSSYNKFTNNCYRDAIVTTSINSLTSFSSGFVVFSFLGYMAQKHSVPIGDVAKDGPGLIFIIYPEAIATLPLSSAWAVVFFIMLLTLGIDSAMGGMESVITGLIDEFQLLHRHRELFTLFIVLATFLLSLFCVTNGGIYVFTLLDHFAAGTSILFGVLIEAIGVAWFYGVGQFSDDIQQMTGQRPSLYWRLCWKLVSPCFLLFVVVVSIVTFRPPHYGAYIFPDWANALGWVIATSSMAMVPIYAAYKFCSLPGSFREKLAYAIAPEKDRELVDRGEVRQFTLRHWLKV

Compound = CNC(C)C(=O)c1ccc(Cl)cc1 (stereo not shown); target = Slc6a4; assay = substrate release, releaser; system = rat brain synaptosomes; endpoint = EC50; result = 0.144 µM
Compound = CCOC(=O)c1cncn1Cc1ccccc1; target = GABRA1/GABRB3 L291T with gamma-2 subunit; assay = ion current, agonist; conditions = 50% of 100 µM GABA current; endpoint = EC50; result = 161 ± 13 µM
Compound = C=CCN(CC=C)CCc1c[nH]c2ccccc12; target = HTR2A; assay = binding; system = cloned human receptor; conditions = together with: [3H]ketanserin; endpoint = Ki; result = 0.701 µM
Compound = CC(C)(C)OC(=O)c1cc2c(cn1)[nH]c1ccccc12; target = human GABAA α5β3γ2 receptor; assay = modulator, two-electrode voltage clamp; system = Xenopus oocytes; conditions = saturating, together with: GABA EC50; scale = baseline: GABA response; endpoint = efficacy; result = 88 ± 7%
Compound = CCCCC/C=C\C/C=C\C/C=C\C/C=C\CCCC(=O)OCCN; target = GPR55 (Homo sapiens, UniProt Q9Y2T6); assay = agonist; endpoint = EC50; result = 3 µM
Compound = COC1C2OP(O)(=S)OCC2OC1n1c(Sc2ccc(Cl)cc2)nc2c(N)ncnc21 (stereo not shown); target = PDE10; assay = cyclic nucleotide hydrolysis, substrate or inhibitor, isothermal titration calorimetry; endpoint = Km or Ki; result = 2.42 µM
Compound = CNC(C)C(=O)c1ccc2c(c1)OCO2 (stereo not shown); target = Slc6a3; endpoint = EC50; result = 0.117 ± 0.012 µM
Compound = CCOC(=O)c1cncn1C1(c2ccccc2)CC1; target = GABRA1/GABRB3 L291T with gamma-2 subunit; assay = ion current, agonist; conditions = 50% of 100 µM GABA current; endpoint = EC50; result = 67.6 ± 8.1 µM
Compound = CNC(C)Cc1ccc2c(c1)OCO2 (stereo not shown); target = SLC6A3 (Homo sapiens, UniProt Q01959); assay = [3H]dopamine release, releaser; system = HEK293 expressing transporter; endpoint = EC50; result = 7.5 ± 2.3 µM
Compound = C=CCN(CC=C)CCc1c[nH]c2ccc(Br)cc12; target = ADRA1B (Homo sapiens, UniProt P35368); endpoint = Ki; result = 2.05 µM
Compound = CNC(C)C(=O)c1ccc(C(F)(F)F)cc1 (stereo not shown); target = Slc6a4; assay = substrate release, releaser; system = rat brain synaptosomes; endpoint = EC50; result = 0.19 µM
Compound = CC[C@@H](c1cccc(O)c1)[C@@H](C)CN(C)C; target = mu-opioid receptor; assay = functional activity, agonist; endpoint = EC50; result = 0.67 µM
Compound = COc1cc(CCNCc2ccccc2OC)c(OC)cc1I; target = HTR2A; assay = agonist; endpoint = EC50; result = 0.24 µM
Compound = CNC(C)C(=O)c1ccc(C)cc1 (stereo not shown); target = Slc6a3; assay = substrate release, releaser; system = rat brain synaptosomes; endpoint = EC50; result = 0.0491 µM
Compound = CC(C)[C@H](NC(=O)c1nn(Cc2ccc(F)cc2)c2ccccc12)C(N)=O; target = CB1 receptor; assay = GIRK channel current, agonist; endpoint = EC50; result = 0.0018 µM
Compound = CNC(C)C(=O)c1ccc(C)cc1 (stereo not shown); target = Slc6a3; endpoint = EC50; result = 0.051 ± 0.005 µM

For quick reference, copied from above:
Compound = CCOC(=O)c1cncn1C1(c2ccccc2)CC1; target = GABRA1/GABRB3 L291T with gamma-2 subunit; assay = ion current, agonist; conditions = 50% of 100 µM GABA current; endpoint = EC50; result = 67.6 ± 8.1 µM
Compound = CNC(C)Cc1ccc2c(c1)OCO2 (stereo not shown); target = SLC6A3 (Homo sapiens, UniProt Q01959); assay = [3H]dopamine release, releaser; system = HEK293 expressing transporter; endpoint = EC50; result = 7.5 ± 2.3 µM
